Measured values gathered from unrelated publications.
Each line is one published result; not all experiments were run side by side. ± marks the error that the study gave.

Compound	test	system	conditions	scale	endpoint	result
CC(C)[C@H](N)C(=O)N[C@@H](CC(N)=O)C(=O)N1CCC[C@H]1C(=O)N[C@@H](CCC(=O)O)C(=O)O		C57BL/6 mice, serum	oral, 10 or 50 mg/kg/day, 2 weeks	reference: control group	serum triglycerides and urea nitrogen	decreased
CC(C)C[C@@H](N)C(=O)NCC(=O)N[C@H](C)C(=O)N[C@H](CO)C(=O)N[C@H](Cc1c[nH]c2ccccc12)C(=O)N[C@H](Cc1c[nH]cn1)C(=O)N[C@H](CCCNC(=N)N)C(=O)N1CCC[C@@H]1C(=O)N[C@H](CC(=O)O)C(=O)N[C@H](CCCCN)C(=O)N[C@H](CS)C(=O)N[C@H](CS)C(=O)N[C@H](CC(C)C)C(=O)NCC(=O)N[C@H](Cc1ccc(O)cc1)C(=O)N[C@H](CCC(N)=O)C(=O)N[C@H](CCCCN)C(=O)N[C@H](CCCNC(=N)N)C(=O)N1CCC[C@@H]1C(=O)N[C@H](CC(C)C)C(=O)N1CCC[C@@H]1C(N)=O	LC-MS/MS	rat plasma	25 ng/mL, 12 h, 25 °C, room temperature before extraction	reference: nominal	accuracy	97.6%
CC(C)C[C@H](NC(=O)[C@H](Cc1ccc(O)cc1)NC(=O)[C@H](C)NC(=O)[C@@H](NC(=O)[C@H](CC(C)C)NC(=O)[C@H](C)NC(=O)[C@H](C)NC(=O)[C@H](CCCCN)NC(=O)CNC(=O)[C@@H](NC(=O)[C@H](Cc1c[nH]cn1)NC(=O)[C@H](CCCCN)NC(=O)CNC(=O)[C@@H](NC(=O)[C@H](Cc1c[nH]cn1)NC(=O)[C@@H](NC(=O)[C@H](C)NC(=O)[C@H](CCCCN)NC(=O)[C@H](CCCCN)NC(=O)[C@H](Cc1ccccc1)NC(=O)[C@H](Cc1c[nH]c2ccccc12)NC(=O)[C@H](CCCCN)NC(=O)CNC(=O)[C@H](Cc1c[nH]c2ccccc12)NC(=O)[C@@H](N)CCCNC(=N)N)[C@@H](C)O)C(C)C)C(C)C)[C@@H](C)O)C(N)=O		zebrafish embryos	1 h, 4, 28, 52 hpf		acute toxic concentration	5 µg/mL
CC(=CCC(O)C(C)=Cc1csc(C)n1)CC=CC(C)C(O)C(C)C(=O)C(C)(C)C(O)CC(=O)O (stereo not shown)		human, plasma	intravenous infusion, 20.0 mg/m2 KOS-1584, 3 h infusion, cycle 1		AUC	233 ± 156 ng·h/mL
[11CH3]n1c(=O)n(CCCO)c(=O)c2c1nc(Oc1cccc(OC(F)(F)F)c1)n2Cc1ccc(Cl)cc1	ex vivo biodistribution	Sprague Dawley rat, lung	30 min post injection		tracer uptake	1.13 ± 0.05 %ID/g
COc1cc2ncnc(Oc3cccc(N[11C](=O)Nc4cc(C(C)(C)C(F)(F)F)on4)c3)c2cc1OC		female Balb/c nude mice, plasma	intravenous, 5 min	reference: radioactivity	intact fraction	7.82 ± 0.26%
COC(=O)C[C@](O)(CCCC(C)(C)OC(C)=O)C(=O)O[C@@H]1C(OC)=C[C@]23CCCN2CCc2cc4c(cc2[C@H]13)OCO4		CD1 mouse, esophagus	subcutaneous, 1 mg/kg, 0.5 h		concentration	68.3 ng/mL
CC[C@H](C)C(=O)N1CCC(NC(=O)Nc2ccc(OC(F)(F)F)c(F)c2)CC1		healthy volunteers	oral, 16 mg single dose		subjects with insomnia TEAE	0%
CC(CCC(=O)NCC(=O)O)C1CCC2C3CCC4CC(OC5OC(C(=O)O)C(O)C(O)C5O)CCC4(C)C3CC(O)C12C (stereo not shown)		human, SLCO1B1 *5/*14, plasma	geometric mean, sex-adjusted		plasma concentration	100 ng/mL
CC(C)[C@H](NC(=O)CNC(=O)[C@H](CCC(N)=O)NC(=O)[C@H](C)N)C(=O)O		human	10 mg/kg single dose		subjects with mild adverse events	33.3%

Some of these lines once more:
Compound	test	system	conditions	scale	endpoint	result
CC(C)C[C@H](NC(=O)[C@H](Cc1ccc(O)cc1)NC(=O)[C@H](C)NC(=O)[C@@H](NC(=O)[C@H](CC(C)C)NC(=O)[C@H](C)NC(=O)[C@H](C)NC(=O)[C@H](CCCCN)NC(=O)CNC(=O)[C@@H](NC(=O)[C@H](Cc1c[nH]cn1)NC(=O)[C@H](CCCCN)NC(=O)CNC(=O)[C@@H](NC(=O)[C@H](Cc1c[nH]cn1)NC(=O)[C@@H](NC(=O)[C@H](C)NC(=O)[C@H](CCCCN)NC(=O)[C@H](CCCCN)NC(=O)[C@H](Cc1ccccc1)NC(=O)[C@H](Cc1c[nH]c2ccccc12)NC(=O)[C@H](CCCCN)NC(=O)CNC(=O)[C@H](Cc1c[nH]c2ccccc12)NC(=O)[C@@H](N)CCCNC(=N)N)[C@@H](C)O)C(C)C)C(C)C)[C@@H](C)O)C(N)=O		zebrafish embryos	1 h, 4, 28, 52 hpf		acute toxic concentration	5 µg/mL
